Results from different studies.
Each numbered part is a random draw from the data of one study; scales do not carry over between parts.
UniProt O95819, sequence (whole entry, looked up): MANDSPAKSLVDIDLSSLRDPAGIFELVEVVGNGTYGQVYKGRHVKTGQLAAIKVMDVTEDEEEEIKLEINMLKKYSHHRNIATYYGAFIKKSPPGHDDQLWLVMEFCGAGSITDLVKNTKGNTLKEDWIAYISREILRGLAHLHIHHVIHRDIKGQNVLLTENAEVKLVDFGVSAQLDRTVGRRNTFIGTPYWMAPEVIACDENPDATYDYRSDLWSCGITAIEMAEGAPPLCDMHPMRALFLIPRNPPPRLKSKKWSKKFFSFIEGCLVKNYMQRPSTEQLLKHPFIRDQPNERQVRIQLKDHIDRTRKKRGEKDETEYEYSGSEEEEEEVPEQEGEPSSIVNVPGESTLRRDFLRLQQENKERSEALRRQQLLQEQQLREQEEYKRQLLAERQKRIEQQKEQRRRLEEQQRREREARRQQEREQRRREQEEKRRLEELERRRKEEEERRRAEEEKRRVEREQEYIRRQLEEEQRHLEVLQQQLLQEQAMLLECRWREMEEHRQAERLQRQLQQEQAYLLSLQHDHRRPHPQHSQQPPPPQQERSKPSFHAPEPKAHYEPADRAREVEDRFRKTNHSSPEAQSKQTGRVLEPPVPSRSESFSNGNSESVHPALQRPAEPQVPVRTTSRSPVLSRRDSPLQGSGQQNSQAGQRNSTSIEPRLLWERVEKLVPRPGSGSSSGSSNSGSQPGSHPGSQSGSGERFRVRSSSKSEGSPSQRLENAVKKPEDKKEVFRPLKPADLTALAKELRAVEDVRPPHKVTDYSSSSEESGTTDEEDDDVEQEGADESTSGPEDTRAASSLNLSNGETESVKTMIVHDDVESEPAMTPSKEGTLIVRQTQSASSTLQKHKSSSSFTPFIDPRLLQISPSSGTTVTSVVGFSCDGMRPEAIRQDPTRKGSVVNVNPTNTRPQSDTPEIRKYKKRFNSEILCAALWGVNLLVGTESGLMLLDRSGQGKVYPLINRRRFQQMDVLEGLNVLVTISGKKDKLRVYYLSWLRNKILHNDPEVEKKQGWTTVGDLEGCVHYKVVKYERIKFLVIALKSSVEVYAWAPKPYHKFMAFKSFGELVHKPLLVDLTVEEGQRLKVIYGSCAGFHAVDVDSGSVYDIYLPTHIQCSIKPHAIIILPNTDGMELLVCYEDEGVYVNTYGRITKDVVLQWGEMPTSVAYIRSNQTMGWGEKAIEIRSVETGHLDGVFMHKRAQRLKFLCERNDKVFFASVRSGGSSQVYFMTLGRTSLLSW
UniProt O75716, sequence (whole entry, looked up): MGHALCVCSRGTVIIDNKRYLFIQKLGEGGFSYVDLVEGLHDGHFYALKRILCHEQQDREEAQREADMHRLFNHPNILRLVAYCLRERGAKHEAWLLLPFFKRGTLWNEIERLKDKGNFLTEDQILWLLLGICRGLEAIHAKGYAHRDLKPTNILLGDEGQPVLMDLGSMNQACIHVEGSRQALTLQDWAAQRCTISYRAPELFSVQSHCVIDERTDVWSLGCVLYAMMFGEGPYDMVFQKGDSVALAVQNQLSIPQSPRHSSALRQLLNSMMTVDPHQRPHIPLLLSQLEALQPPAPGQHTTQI
UniProt Q9H2X6, sequence (whole entry, looked up): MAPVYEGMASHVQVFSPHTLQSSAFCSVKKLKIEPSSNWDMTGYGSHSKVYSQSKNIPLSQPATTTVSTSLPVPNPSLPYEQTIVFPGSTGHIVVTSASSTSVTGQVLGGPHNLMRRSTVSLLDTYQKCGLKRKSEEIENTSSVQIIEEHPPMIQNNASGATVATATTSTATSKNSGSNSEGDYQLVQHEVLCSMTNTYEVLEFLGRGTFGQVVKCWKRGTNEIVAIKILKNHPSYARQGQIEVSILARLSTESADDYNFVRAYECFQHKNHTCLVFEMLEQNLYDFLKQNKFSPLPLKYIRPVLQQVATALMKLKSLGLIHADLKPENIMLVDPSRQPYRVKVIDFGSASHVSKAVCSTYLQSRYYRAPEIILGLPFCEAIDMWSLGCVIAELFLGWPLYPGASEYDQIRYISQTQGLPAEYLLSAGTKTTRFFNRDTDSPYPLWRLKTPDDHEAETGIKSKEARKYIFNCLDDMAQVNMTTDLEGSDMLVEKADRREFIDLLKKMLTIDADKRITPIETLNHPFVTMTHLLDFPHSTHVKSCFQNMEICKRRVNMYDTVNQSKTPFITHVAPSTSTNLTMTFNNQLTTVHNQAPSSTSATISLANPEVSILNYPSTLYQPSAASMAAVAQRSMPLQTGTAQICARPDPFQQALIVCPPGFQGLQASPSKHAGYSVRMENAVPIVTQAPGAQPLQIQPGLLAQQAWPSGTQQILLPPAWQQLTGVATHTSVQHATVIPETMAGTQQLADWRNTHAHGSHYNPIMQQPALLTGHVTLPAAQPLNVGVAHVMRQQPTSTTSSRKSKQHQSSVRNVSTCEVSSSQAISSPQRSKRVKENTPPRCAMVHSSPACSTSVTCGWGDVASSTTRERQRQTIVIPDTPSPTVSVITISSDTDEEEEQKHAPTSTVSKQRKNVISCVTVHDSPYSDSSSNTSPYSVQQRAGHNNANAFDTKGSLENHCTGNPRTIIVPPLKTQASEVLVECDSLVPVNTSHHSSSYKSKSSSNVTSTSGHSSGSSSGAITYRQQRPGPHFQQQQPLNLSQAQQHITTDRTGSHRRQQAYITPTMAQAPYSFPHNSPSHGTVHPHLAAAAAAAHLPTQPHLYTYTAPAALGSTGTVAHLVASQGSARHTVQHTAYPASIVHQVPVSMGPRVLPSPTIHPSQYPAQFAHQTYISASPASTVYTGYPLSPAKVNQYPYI
UniProt Q6W5P4, sequence (whole entry, looked up): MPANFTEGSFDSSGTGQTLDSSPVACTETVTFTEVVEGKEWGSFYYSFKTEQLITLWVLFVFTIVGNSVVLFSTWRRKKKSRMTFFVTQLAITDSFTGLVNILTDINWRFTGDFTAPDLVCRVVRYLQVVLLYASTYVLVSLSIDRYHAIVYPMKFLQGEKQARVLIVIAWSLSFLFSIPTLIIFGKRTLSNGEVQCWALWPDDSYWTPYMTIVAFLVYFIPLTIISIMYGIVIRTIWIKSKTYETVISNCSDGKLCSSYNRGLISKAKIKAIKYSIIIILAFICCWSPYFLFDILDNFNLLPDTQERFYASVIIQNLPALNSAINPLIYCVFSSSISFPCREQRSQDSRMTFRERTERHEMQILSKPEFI
UniProt P51451, sequence (whole entry, looked up): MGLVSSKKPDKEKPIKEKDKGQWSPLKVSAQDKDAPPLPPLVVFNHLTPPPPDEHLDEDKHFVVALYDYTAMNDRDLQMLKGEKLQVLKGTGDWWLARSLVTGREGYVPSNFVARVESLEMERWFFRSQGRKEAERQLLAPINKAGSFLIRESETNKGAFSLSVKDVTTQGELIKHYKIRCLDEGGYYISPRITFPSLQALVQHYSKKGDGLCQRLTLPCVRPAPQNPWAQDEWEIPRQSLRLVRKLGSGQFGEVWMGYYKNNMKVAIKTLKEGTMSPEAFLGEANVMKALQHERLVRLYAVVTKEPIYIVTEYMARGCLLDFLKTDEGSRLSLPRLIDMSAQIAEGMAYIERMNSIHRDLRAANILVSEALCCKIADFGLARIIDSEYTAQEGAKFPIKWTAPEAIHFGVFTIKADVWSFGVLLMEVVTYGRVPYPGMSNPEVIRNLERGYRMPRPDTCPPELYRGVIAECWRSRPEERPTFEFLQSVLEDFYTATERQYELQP
UniProt Q16644, sequence (whole entry, looked up): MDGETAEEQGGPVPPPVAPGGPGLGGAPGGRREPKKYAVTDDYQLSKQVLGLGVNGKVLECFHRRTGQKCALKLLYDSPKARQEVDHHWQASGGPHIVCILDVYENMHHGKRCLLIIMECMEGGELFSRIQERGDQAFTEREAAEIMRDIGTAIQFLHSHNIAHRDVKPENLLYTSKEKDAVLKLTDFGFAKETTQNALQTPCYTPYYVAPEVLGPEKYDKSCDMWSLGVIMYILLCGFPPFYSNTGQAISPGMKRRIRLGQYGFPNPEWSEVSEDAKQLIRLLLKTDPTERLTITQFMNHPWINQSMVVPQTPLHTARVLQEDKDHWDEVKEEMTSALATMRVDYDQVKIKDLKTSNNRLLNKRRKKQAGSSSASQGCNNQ
UniProt Q9UBE8, sequence (whole entry, looked up): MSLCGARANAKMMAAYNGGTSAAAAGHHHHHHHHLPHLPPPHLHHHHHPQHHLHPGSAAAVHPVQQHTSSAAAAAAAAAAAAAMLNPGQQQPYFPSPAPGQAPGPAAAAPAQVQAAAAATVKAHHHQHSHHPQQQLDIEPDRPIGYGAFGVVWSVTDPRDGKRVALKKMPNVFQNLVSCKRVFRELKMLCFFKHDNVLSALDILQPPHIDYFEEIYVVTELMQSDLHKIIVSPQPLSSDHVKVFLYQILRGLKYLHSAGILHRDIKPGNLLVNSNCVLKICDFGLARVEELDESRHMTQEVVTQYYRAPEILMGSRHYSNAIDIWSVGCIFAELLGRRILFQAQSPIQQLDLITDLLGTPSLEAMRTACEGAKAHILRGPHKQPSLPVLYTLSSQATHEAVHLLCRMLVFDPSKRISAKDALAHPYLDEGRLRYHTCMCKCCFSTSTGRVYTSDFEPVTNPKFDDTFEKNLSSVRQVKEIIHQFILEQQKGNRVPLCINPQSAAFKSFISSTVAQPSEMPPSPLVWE
UniProt O00574, sequence (whole entry, looked up): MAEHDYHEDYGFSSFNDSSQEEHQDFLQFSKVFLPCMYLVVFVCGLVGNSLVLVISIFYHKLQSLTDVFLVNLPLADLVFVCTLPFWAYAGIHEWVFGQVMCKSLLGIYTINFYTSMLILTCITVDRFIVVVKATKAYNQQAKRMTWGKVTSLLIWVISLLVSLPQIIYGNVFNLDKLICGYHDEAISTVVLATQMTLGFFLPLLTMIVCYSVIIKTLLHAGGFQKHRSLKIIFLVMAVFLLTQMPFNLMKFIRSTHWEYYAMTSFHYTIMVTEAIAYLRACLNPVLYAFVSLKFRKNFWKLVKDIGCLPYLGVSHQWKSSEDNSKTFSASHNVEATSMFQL

Set 1 — read-out: enzyme activity; mode: inhibitor; tested at: 0.5 µM; reference: control
Compound: CC[n+]1c(/C=C/N(C)c2ccccc2)n(-c2ccccc2)c2ccc(-c3nc4ccccc4s3)cc21
target	remaining activity [%]
Ephrin type-B receptor 4 (EPHB4, Homo sapiens, UniProt P54760)	103
Cyclin-dependent kinase 4, with cyclin D3 (CDK4, Homo sapiens, UniProt P11802)	102
Tyrosine-protein kinase Blk (BLK, Homo sapiens, UniProt P51451)	99.1
Homeodomain-interacting protein kinase 2 (HIPK2, Homo sapiens, UniProt Q9H2X6)	103
Dual specificity tyrosine-phosphorylation-regulated kinase 3 (DYRK3, Homo sapiens, UniProt O43781)	98.7
3-phosphoinositide-dependent protein kinase 1 (PDPK1, Homo sapiens, UniProt O15530)	103
Cyclin-dependent kinase 1, with cyclin B (CDK1, Homo sapiens, UniProt P06493)	105
Ribosomal protein S6 kinase alpha-5 (RPS6KA5, Homo sapiens, UniProt O75582)	111
Phosphorylase b kinase gamma catalytic chain, skeletal muscle/heart isoform (PHKG1, Homo sapiens, UniProt Q16816)	96.1
Calcium/calmodulin-dependent protein kinase type II subunit beta (CAMK2B, Homo sapiens, UniProt Q13554)	103
Testis-specific serine/threonine-protein kinase 2 (TSSK2, Homo sapiens, UniProt Q96PF2)	98.4
Serine/threonine-protein kinase 17A (STK17A, Homo sapiens, UniProt Q9UEE5)	96.9
Serine/threonine-protein kinase 16 (STK16, Homo sapiens, UniProt O75716)	98.4
Serine/threonine-protein kinase WNK3 (WNK3, Homo sapiens, UniProt Q9BYP7)	85.9
Tyrosine-protein kinase Srms (SRMS, Homo sapiens, UniProt Q9H3Y6)	93.7
Ephrin type-A receptor 4 (EPHA4, Homo sapiens, UniProt P54764)	91.9
Mitogen-activated protein kinase kinase kinase kinase 4 (MAP4K4, Homo sapiens, UniProt O95819)	110
Cyclin-dependent kinase 6, with cyclin D3 (CDK6, Homo sapiens, UniProt Q00534)	92.2
Ribosomal protein S6 kinase alpha-6 (RPS6KA6, Homo sapiens, UniProt Q9UK32)	96
Ephrin type-B receptor 1 (EPHB1, Homo sapiens, UniProt P54762)	104
Homeodomain-interacting protein kinase 4 (HIPK4, Homo sapiens, UniProt Q8NE63)	102
MAP kinase-activated protein kinase 3 (MAPKAPK3, Homo sapiens, UniProt Q16644)	100
Tyrosine-protein kinase receptor UFO (AXL, Homo sapiens, UniProt P30530)	101

Set 2 — Structure (SMILES): CCN(c1nc(N)c(C(=O)N=C(N)N)nc1Cl)C(C)C; read-out: β-arrestin recruitment; mode: agonist; method: PRESTO-Tango; tested at: 10 µM; reference: untreated
target	fold over basal
Neuropeptide S receptor (NPSR1, Homo sapiens, UniProt Q6W5P4)	1.05
GPR37 (Homo sapiens, UniProt O15354)	1.18
Free fatty acid receptor 2 (FFAR2, Homo sapiens, UniProt O15552)	0.68 fold
Somatostatin receptor type 3 (SSTR3, Homo sapiens, UniProt P32745)	0.76 fold
Growth hormone-releasing hormone receptor (GHRHR, Homo sapiens, UniProt Q02643)	0.62 fold
P2Y purinoceptor 2 (P2RY2, Homo sapiens, UniProt P41231)	0.73
Leukotriene B4 receptor 1 (LTB4R, Homo sapiens, UniProt Q15722)	0.99
Trace amine-associated receptor 8 (TAAR8, Homo sapiens, UniProt Q969N4)	0.75 fold
Neurotensin receptor type 2 (NTSR2, Homo sapiens, UniProt O95665)	1.15
G-protein coupled receptor family C group 5 member D (GPRC5D, Homo sapiens, UniProt Q9NZD1)	0.36
C-X-C chemokine receptor type 6 (CXCR6, Homo sapiens, UniProt O00574)	0.75
Sphingosine 1-phosphate receptor 1 (S1PR1, Homo sapiens, UniProt P21453)	0.78
Mu-type opioid receptor (OPRM1, Homo sapiens, UniProt P35372)	5.87
G-protein coupled receptor 161 (GPR161, Homo sapiens, UniProt Q8N6U8)	0.94

Set 3 — read-out: cell-free assay; method: competition with immobilised ligand; tested at: 0.1 µM
SMILES: Cc1c[nH]c2nccc(Oc3c(F)cc(Nc4cc(Cl)nc(N)n4)cc3F)c12
target	remaining binding [%]
Dual specificity protein kinase CLK1 (CLK1, Homo sapiens, UniProt P49759)	83
Ribosomal protein S6 kinase alpha-1, C-terminal kinase domain (RPS6KA1, Homo sapiens, UniProt Q15418)	100
TGF-beta receptor type-1 (TGFBR1, Homo sapiens, UniProt P36897)	81
Mast/stem cell growth factor receptor Kit (KIT, Homo sapiens, UniProt P10721, A829P)	70
RAC-gamma serine/threonine-protein kinase (AKT3, Homo sapiens, UniProt Q9Y243)	78
Activin receptor type-1B (ACVR1B, Homo sapiens, UniProt P36896)	87
Fibroblast growth factor receptor 3 (FGFR3, Homo sapiens, UniProt P22607)	100
Ribosomal protein S6 kinase alpha-3, C-terminal kinase domain (RPS6KA3, Homo sapiens, UniProt P51812)	73
Serine/threonine-protein kinase 16 (STK16, Homo sapiens, UniProt O75716)	87
Ephrin type-B receptor 3 (EPHB3, Homo sapiens, UniProt P54753)	100
cAMP-dependent protein kinase catalytic subunit beta (PRKACB, Homo sapiens, UniProt P22694)	36
Receptor-type tyrosine-protein kinase FLT3 (FLT3, Homo sapiens, UniProt P36888, D835V/ITD)	87
Serine/threonine-protein kinase Nek1 (NEK1, Homo sapiens, UniProt Q96PY6)	96
Serine/threonine-protein kinase RIO2 (RIOK2, Homo sapiens, UniProt Q9BVS4)	85
Serine/threonine-protein kinase NLK (NLK, Homo sapiens, UniProt Q9UBE8)	100
Mitogen-activated protein kinase kinase kinase kinase 4 (MAP4K4, Homo sapiens, UniProt O95819)	94
Serine/threonine-protein kinase N2 (PKN2, Homo sapiens, UniProt Q16513)	100
Phosphatidylinositol 4-kinase beta (PI4KB, Homo sapiens, UniProt Q9UBF8)	97
Serine/threonine-protein kinase 26 (STK26, Homo sapiens, UniProt Q9P289)	100
Tyrosine-protein kinase ABL2 (ABL2, Homo sapiens, UniProt P42684)	86
Serine/threonine-protein kinase D2 (PRKD2, Homo sapiens, UniProt Q9BZL6)	94
Receptor-type tyrosine-protein kinase FLT3 (FLT3, Homo sapiens, UniProt P36888, F691L/ITD)	54
Protein kinase C delta type (PRKCD, Homo sapiens, UniProt Q05655)	100
Cyclin-dependent kinase-like 3 (CDKL3, Homo sapiens, UniProt Q8IVW4)	100
Receptor tyrosine-protein kinase erbB-3 (ERBB3, Homo sapiens, UniProt P21860)	65

Set 4 — host: human; sample: microsomes or S9; tested at: 2 µM; time: 0.5 h
Structure (SMILES)	remaining compound [%]
Cc1nn(CCc2nn[nH]n2)c(C)c1Br	31.4
Cc1ccc(C(=O)Cn2nc3n(Cc4ccccc4)c(=O)c4ccc(C(=O)NC(C)C)cc4n3c2=O)cc1	> 99
COc1ccccc1C(CC(=O)NCCN(C)C)C(C)C (stereo not shown)	91
CCOC(C#Cc1cncc(I)c1N)OCC	5.33
CCn1cc(-c2cc(C(F)F)n3nc(C)cc3n2)c(C)n1	> 99
COc1cc(C(=O)N2CCN(C)CC2)c(N(C)S(C)(=O)=O)cc1OC	> 100
CCn1ncc(NC(=O)c2cc(C)nc3c2c(C)nn3CC)c1C	85.6
Cc1oc(-c2[nH]ncc2C(=O)N(C)C)cc1S(=O)(=O)NCCCN(C)C	81.2
CC(C)CN1C(=O)C2C3CC4C5(C)CCCC(C)(C(=O)O)C5CCC4(C=C3C(C)C)C2C1=O (stereo not shown)	74.9
COc1ccc(C(N)=O)cc1NC1C2CCOC2C12CCC2 (stereo not shown)	68.7
CC(C)(C)CNCCn1c(=S)[nH]c2c(Cl)nccc21	97.2
COc1cc(N2CCC(N3CCN(C)CC3)CC2)ccc1Nc1ncc(Cl)c(Nc2ccccc2N)n1	76.9
COc1cc(=O)[nH]cc1C(=O)N1CCC(OCC2CCCC2)CC1	71
O=C1OCc2c(-c3ccccc3)sc(-c3ccc4c(c3)OCO4)c21	53.7
CC(=O)NCCOC(=O)c1ccc(Cl)c(S(=O)(=O)N(C)C)c1	21.5
Cc1ccc(NCc2nc3n(n2)CCCCC3)c(C)c1	81.2
COc1cc(/C=C/C(=O)O)cc(S(=O)(=O)Nc2cccc(-c3n[nH]c4c3CCC4)c2)c1OC	94.5

Some of these lines once more (set 4):
Structure (SMILES)	remaining compound [%]
CC(C)CN1C(=O)C2C3CC4C5(C)CCCC(C)(C(=O)O)C5CCC4(C=C3C(C)C)C2C1=O (stereo not shown)	74.9
COc1cc(N2CCC(N3CCN(C)CC3)CC2)ccc1Nc1ncc(Cl)c(Nc2ccccc2N)n1	76.9
CC(C)(C)CNCCn1c(=S)[nH]c2c(Cl)nccc21	97.2
CC(=O)NCCOC(=O)c1ccc(Cl)c(S(=O)(=O)N(C)C)c1	21.5
